Experimental data from different studies.
Protocols differ between the studies behind these lines. ± gives the spread as reported.

For `N=C(N)NCCC[C@@H]1NC(=O)[C@H](CCCCNC(=O)CNC(=O)CNC(=O)CNC(=O)CC[C@H](NC(=O)CNC(=O)CNC(=O)CNC(=O)CN2CCN(CC(=O)O)CCN(CC(=O)O)CCN(CC(=O)O)CC2)C(=O)NCC(=O)NCC(=O)NCC(=O)NCCCC[C@@H]2NC(=O)[C@@H](Cc3ccccc3)NC(=O)[C@H](CC(=O)O)NC(=O)CNC(=O)[C@H](CCCNC(=N)N)NC2=O)NC(=O)[C@@H](Cc2ccccc2)NC(=O)[C@H](CC(=O)O)NC(=O)CNC1=O` [indium-111 labelled], the tissue uptake was 4.81 ± 1.01 %ID/g (female athymic nu/nu mice, intestine; intravenous, 1 h).
`CCCC[C@H](NC(=O)CNC(=O)CNC(=O)CN1CCN(CC(=O)O)CCN(CC(=O)O)CC1)C(=O)N[C@H]1CC(=O)NCCCC[C@@H](C(N)=O)NC(=O)[C@H](Cc2c[nH]c3ccccc23)NC(=O)[C@H](CCCNC(=N)N)NC(=O)[C@@H](Cc2ccccc2)NC(=O)[C@H](Cc2c[nH]cn2)NC1=O` [technetium-99m labelled] has a tissue uptake of 0.01 ± 0.01 %ID/g (C57 mouse, brain; iv, 0.037 MBq, 24 h).
The tissue uptake of `CCCC[C@H](NC(=O)CCCCCCCNC(=O)CN1CCN(CC(=O)O)CCN(CC(=O)O)CC1)C(=O)N[C@H]1CC(=O)NCCCC[C@@H](C(N)=O)NC(=O)[C@H](Cc2c[nH]c3ccccc23)NC(=O)[C@H](CCCNC(=N)N)NC(=O)[C@@H](Cc2ccccc2)NC(=O)[C@H](Cc2c[nH]cn2)NC1=O` [copper-64 labelled] is reported as 0.38 ± 0.06 %ID/g (C57 mice, lung; intravenous, 0.37 MBq, 24 h).
For `CC(C)C[C@H](NC(=O)[C@H](Cc1ccc(O)cc1)NC(=O)[C@@H](CCCNC(=N)N)NC(=O)[C@@H](CO)NC(=O)[C@H](Cc1ccccc1)NC(=O)[C@H](CC1CCCCC1)NC(=O)[C@H](CC(=O)O)NC(=O)CN1CCCN2CCN(CCCN(CC(=O)O)CC2)CC1)C(=O)N[C@@H](Cc1c[nH]c2ccccc12)C(=O)N[C@@H](CO)C(=O)O` [copper-64 labelled], the tissue uptake was 0.2 ± 0.1 %ID/g (female NMRI nude mice, brain; 1 h p.i.).
For `CCCC[C@H](NC(=O)CNC(=O)CNC(=O)CN1CCN(CC(=O)O)CCN(CC(=O)O)CCN(CC(=O)O)CC1)C(=O)N[C@H]1CC(=O)NCCCC[C@@H](C(N)=O)NC(=O)[C@H](Cc2c[nH]c3ccccc23)NC(=O)[C@H](CCCNC(=N)N)NC(=O)[C@@H](Cc2ccccc2)NC(=O)[C@H](Cc2c[nH]cn2)NC1=O` [lutetium-177 labelled], the tissue uptake was 0.14 ± 0.05 %ID/g (C57 mouse, female, muscle; intravenous, 0.037 MBq, 24 h).
`N=C(N)NCCC[C@@H]1NC(=O)[C@H](CCCCNC(=O)CNC(=O)CNC(=O)CNC(=O)CC[C@H](NC(=O)CNC(=O)CNC(=O)CNC(=O)CC[C@H](NC(=O)CN2CCN(CC(=O)O)CCN(CC(=O)O)CCN(CC(=O)O)CC2)C(=O)NCC(=O)NCC(=O)NCC(=O)N[C@@H](CCC(=O)NCC(=O)NCC(=O)NCC(=O)NCCCC[C@@H]2NC(=O)[C@@H](Cc3ccccc3)NC(=O)[C@H](CC(=O)O)NC(=O)CNC(=O)[C@H](CCCNC(=N)N)NC2=O)C(=O)NCC(=O)NCC(=O)NCC(=O)NCCCC[C@@H]2NC(=O)[C@@H](Cc3ccccc3)NC(=O)[C@H](CC(=O)O)NC(=O)CNC(=O)[C@H](CCCNC(=N)N)NC2=O)C(=O)NCC(=O)NCC(=O)NCC(=O)NCCCC[C@@H]2NC(=O)[C@@H](Cc3ccccc3)NC(=O)[C@H](CC(=O)O)NC(=O)CNC(=O)[C@H](CCCNC(=N)N)NC2=O)NC(=O)[C@@H](Cc2ccccc2)NC(=O)[C@H](CC(=O)O)NC(=O)CNC1=O` [indium-111 labelled] gave a tissue uptake of 0.9 ± 0.41 %ID/g (female athymic nu/nu mice, bone; intravenous, 72 h).
For `CCCC[C@H](NC(=O)COCCOCCNC(=O)CN1CCN(CC(=O)O)CCN(CC(=O)O)CC1)C(=O)N[C@H]1CC(=O)NCCCC[C@@H](C(N)=O)NC(=O)[C@H](Cc2c[nH]c3ccccc23)NC(=O)[C@H](CCCNC(=N)N)NC(=O)[C@@H](Cc2ccccc2)NC(=O)[C@H](Cc2c[nH]cn2)NC1=O` [copper-64 labelled], the tissue uptake was 3.66 ± 0.52 %ID/g (C57 mice, kidney; intravenous, 0.37 MBq, 2 h).
For `N=C(N)NCCC[C@@H]1NC(=O)[C@H](CCCCNC(=O)CC[C@H](NC(=O)CC[C@H](NC(=O)CN2CCN(CC(=O)O)CCN(CC(=O)O)CCN(CC(=O)O)CC2)C(=O)N[C@@H](CCC(=O)NCCCC[C@@H]2NC(=O)[C@@H](Cc3ccccc3)NC(=O)[C@H](CC(=O)O)NC(=O)CNC(=O)[C@H](CCCNC(=N)N)NC2=O)C(=O)NCCCC[C@@H]2NC(=O)[C@@H](Cc3ccccc3)NC(=O)[C@H](CC(=O)O)NC(=O)CNC(=O)[C@H](CCCNC(=N)N)NC2=O)C(=O)NCCCC[C@@H]2NC(=O)[C@@H](Cc3ccccc3)NC(=O)[C@H](CC(=O)O)NC(=O)CNC(=O)[C@H](CCCNC(=N)N)NC2=O)NC(=O)[C@@H](Cc2ccccc2)NC(=O)[C@H](CC(=O)O)NC(=O)CNC1=O` [indium-111 labelled], the tissue uptake was 1.79 ± 0.38 %ID/g (female athymic nu/nu mice, muscle; intravenous, 0.5 h).
`CC(C)C[C@H](NC(=O)[C@@H](CCCCNC(=O)CCCCCNC(=O)CN1CCN(CC(=O)O)CCN(CC(=O)O)CCN(CC(=O)O)CC1)NC(=O)[C@H](Cc1ccc(O)cc1)NC(=O)[C@H](CO)NC(=O)[C@H](Cc1c[nH]c2ccccc12)NC(=O)[C@H](Cc1cnc[nH]1)NC(=O)[C@@H]1CCC(=O)N1)C(=O)N[C@@H](CCCNC(=N)N)C(=O)N1CCC[C@H]1C(=O)NCC(N)=O` [indium-111 labelled] has a tissue uptake of 0.28 ± 0.12 %ID/g (female athymic nude mouse, lung; intravenous, 0.037 MBq, 2 h).

A few entries again:
`CCCC[C@H](NC(=O)CNC(=O)CNC(=O)CN1CCN(CC(=O)O)CCN(CC(=O)O)CC1)C(=O)N[C@H]1CC(=O)NCCCC[C@@H](C(N)=O)NC(=O)[C@H](Cc2c[nH]c3ccccc23)NC(=O)[C@H](CCCNC(=N)N)NC(=O)[C@@H](Cc2ccccc2)NC(=O)[C@H](Cc2c[nH]cn2)NC1=O` [technetium-99m labelled] has a tissue uptake of 0.01 ± 0.01 %ID/g (C57 mouse, brain; iv, 0.037 MBq, 24 h).
